# Measurements from different studies.
# A part holds a random share of what one study measured. Changes are numbered by the printed parent chain.

# Series 1
# Target: Histone acetyltransferase KAT6A, winged helix 2, GST fusion (KAT6A, Homo sapiens, UniProt Q92794, residues 85-181)
# Technique: protein binding microarray
# Form: double-stranded DNA, one strand shown
# Sample: in vitro
# Concentration: not given
# Setting: 8-mer, flanks averaged, mean of 2 arrays, mostly near background
# Reference: not given
# Reading: higher = stronger binding
# Target sequence (chain): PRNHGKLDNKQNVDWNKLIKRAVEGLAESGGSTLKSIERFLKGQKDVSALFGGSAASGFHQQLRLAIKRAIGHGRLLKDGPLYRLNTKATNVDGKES
Oligonucleotide,E-score
ACTATCTA,-0.0261
AGGTCCTA,-0.0812
CCGCATCG,0.27
CACTGAAC,0.00739
CAGGGGTC,-0.0767
AGACAGCG,0.0603
AAACCCTC,0.00611
CCCTGCTA,-0.0213

# Series 2
# Target: Ras GTPase-activating protein-binding protein 1, full length (G3BP1, Homo sapiens, UniProt Q13283)
# UniProt Q13283, sequence (whole entry, looked up): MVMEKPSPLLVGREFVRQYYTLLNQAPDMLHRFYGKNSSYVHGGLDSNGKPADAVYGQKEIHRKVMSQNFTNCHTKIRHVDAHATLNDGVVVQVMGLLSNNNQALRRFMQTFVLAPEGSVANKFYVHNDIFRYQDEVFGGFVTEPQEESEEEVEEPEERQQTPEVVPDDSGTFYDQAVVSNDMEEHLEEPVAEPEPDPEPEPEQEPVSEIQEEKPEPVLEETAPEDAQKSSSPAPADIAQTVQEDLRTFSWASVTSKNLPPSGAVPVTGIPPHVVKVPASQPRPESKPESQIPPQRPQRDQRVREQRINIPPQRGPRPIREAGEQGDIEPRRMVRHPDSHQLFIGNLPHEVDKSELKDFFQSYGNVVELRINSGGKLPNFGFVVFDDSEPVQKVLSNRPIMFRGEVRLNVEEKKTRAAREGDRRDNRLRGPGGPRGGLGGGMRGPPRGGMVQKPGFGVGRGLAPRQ
# Technique: RNA Bind-n-Seq
# Form: RNA
# Sample: in vitro
# Concentration: 200 nM
# Setting: whole 134-nt RNA, ends assumed
# With: 150 mM KCl
# Reference: input library
# Reading: higher = stronger binding
# All sequences stand within: GGGAGUUCUACAGUCCGACGAUC … UGGAAUUCUCGGGUGUCAAGG
Oligonucleotide,log2 enrichment
ACCAUGCAGGUGGGCAUCUUUGGGAAGUGGGGCAAGGGGGGGAUAGGGAGGGGGGUAACACUUUGGGAGCAGGUGGUCCCAGGUCGUUUC,1.3
AGUCCUGUGCUACACAUCGUAUGUACCGAAUCGGGAAAAGGAAAAGGGGAAAAGGGGAAAGUAUUAUGUUACGCCGUUCGGAUCUGCACU,-0.132
CACAGACAACACGCACCCACACAGACACAGAGGGAAGGGGUUGGGAUGGGGACAGGGUGCACAGCAGGGCGGGGUAGGACCGCAGCCCCU,1.78
CCUCAAGUCCUGUGCUACACAUCGUAUGUACCGAAUCGGGAAGGAAGGGAAGGAAAGUAUUAUGUUACGCCGUUCGGAUCUGCACUUCCA,-0.384
UCCUCAAGUCCUGUGCUACACAUCGUAUGUACCGAAUCGGUGGUGGUUUGGAAAGUAUUAUGUUACGCCGUUCGGAUCUGCACUUCCAGC,-0.517
UUCACAGGUAAGUGGGGCAGUGUCCGGACCAGUGGACGCAGCAGUGGCCUUGGCACCGAUGUGGGCUCCCGGCUAGCUGGCAGAGACGCG,-1.14
AGUCCUGUGCUACACAUCGUAUGUACCGAAUCGGAAAAAGGAAAAAGGGGAAAAAGGAAAGUAUUAUGUUACGCCGUUCGGAUCUGCACU,-0.977
GCAGGAAGUAAAAACAAAUGGAAAUGCUUCGGAUAGUGGCAGGGGUGGGGGUUGCUAAGGAAGGGGUGGGAUGGGAGUGGGUAAAGAGUU,0.736

# Series 3
# Target: CCNE1, cyclin fold, Cln2 fusion (human)
# Technique: yeast growth competition, sequencing
# Sample: yeast
# Setting: weak parent motif
# Reference: not given
# Reading: higher = stronger binding
# Parent: WEE1 docking peptide (human); HKTFRKLRLFDTP
Substitution,normalised enrichment score
H1F,-0.22
D11L,0.552
R8A,0.693
T3E,-0.0314
P13N,0.957
K6P,0.712
T3L,0.906
P13F,0.579
L7P,0.426
L7V,-0.288

# Mixed results
Substance,target,assay,test system,conditions,how to read,quantity,result
"PhoQ, residues 284 288 289 292 302 303 TLSLKA","PhoP, residues 12 14 15 18 19 LHATL (Escherichia coli, UniProt P23836)","Sort-seq, measured: YFP reporter",E. coli,"PhoQ-PhoP variant library, with: 10 µM Mg2+","reference: high Mg2+ state, higher = stronger signaling",fold induction,5.73
